# Measurements pooled from the literature.
# Parts stem from different laboratories: compare values within a part only. Substitutions count along the parent as printed.
# UniProt O15075, sequence (whole entry, looked up): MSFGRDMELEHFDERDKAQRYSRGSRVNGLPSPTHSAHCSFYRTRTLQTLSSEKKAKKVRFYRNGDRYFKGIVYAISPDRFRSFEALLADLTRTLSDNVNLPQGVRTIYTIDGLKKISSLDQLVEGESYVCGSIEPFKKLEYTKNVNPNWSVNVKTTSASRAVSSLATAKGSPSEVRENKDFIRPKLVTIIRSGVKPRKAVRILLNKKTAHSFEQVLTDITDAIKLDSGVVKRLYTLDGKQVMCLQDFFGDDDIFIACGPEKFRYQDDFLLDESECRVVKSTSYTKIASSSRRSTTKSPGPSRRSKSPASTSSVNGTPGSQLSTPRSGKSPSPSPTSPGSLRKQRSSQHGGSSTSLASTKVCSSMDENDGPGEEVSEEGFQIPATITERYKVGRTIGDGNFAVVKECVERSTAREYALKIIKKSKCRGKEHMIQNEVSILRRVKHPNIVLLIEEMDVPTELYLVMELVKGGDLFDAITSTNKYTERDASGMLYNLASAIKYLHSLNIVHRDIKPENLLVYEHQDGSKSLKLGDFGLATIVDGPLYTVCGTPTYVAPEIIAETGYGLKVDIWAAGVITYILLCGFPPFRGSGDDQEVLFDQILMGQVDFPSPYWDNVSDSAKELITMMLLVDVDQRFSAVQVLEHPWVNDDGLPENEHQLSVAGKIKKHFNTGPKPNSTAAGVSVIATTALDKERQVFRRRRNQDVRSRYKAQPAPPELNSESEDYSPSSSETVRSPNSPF

# Study 1
# Target: Sal-like protein 4, full length isoform A (SALL4, Homo sapiens, UniProt Q9UJQ4, residues 1-1053)
# UniProt Q9UJQ4, sequence (whole entry, looked up): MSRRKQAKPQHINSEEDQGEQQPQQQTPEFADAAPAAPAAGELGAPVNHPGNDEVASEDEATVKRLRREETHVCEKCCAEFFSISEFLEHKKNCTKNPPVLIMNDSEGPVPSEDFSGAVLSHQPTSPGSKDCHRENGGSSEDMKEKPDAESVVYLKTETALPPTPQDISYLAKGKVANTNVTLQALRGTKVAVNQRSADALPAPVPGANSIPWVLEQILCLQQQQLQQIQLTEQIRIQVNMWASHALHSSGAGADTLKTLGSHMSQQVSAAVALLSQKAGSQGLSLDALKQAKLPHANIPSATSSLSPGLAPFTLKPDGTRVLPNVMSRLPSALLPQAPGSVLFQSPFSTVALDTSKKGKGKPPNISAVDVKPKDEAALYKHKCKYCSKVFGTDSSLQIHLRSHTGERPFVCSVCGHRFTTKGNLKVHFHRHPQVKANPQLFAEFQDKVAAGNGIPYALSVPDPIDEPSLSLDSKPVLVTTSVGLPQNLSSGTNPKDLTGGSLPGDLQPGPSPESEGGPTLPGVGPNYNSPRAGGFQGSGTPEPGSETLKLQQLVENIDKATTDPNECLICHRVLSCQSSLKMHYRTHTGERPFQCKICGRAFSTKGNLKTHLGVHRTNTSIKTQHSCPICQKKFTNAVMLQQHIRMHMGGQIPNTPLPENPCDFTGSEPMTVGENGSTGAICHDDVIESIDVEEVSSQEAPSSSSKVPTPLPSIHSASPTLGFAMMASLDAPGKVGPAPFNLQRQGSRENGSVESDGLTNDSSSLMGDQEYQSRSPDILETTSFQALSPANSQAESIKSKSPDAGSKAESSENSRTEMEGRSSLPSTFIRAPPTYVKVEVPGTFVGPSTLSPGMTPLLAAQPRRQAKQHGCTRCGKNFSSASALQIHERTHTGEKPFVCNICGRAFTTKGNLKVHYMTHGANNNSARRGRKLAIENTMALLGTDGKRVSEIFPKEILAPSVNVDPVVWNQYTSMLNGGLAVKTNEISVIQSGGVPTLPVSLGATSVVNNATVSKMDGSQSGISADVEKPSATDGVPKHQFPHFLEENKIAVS
# Technique: universal PBM
# Molecule type: double-stranded DNA, one strand shown
# Matrix: in vitro
# Tested at: 600 nM
# Setting: 8-mer, flanks averaged, mean of replicates
# Reading: higher = stronger binding
Sequence,E-score
TGGTACCA,-0.277
CATACCAC,-0.0213
AACTCTCT,-0.0463
ACACGGTG,-0.123
AGCGGACC,-0.256
AGGTCGCC,-0.24
ATTTGCGC,0.0118
CCTGCATC,-0.178

# Study 2
# Target: Histone acetyltransferase KAT6A, winged helix 1, GST fusion (KAT6A, Homo sapiens, UniProt Q92794, residues 1-85)
# Technique: protein binding microarray
# Molecule type: double-stranded DNA, one strand shown
# Matrix: in vitro
# Tested at: not given
# Setting: 8-mer, flanks averaged, mean of 2 arrays, mostly near background
# Relative to: not given
# Reading: higher = stronger binding
# Target sequence (chain): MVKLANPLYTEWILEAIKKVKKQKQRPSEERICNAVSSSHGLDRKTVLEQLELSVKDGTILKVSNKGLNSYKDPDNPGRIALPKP
Sequence,E-score
GGGGTGAC,-0.03
ACCAAAGA,-0.219
CCACGTAG,-0.172
GGCATCGA,-0.012
CATGACTA,-0.0715
CTGATTAC,0.0659
CGCCGATC,0.352
CACCAGCA,-0.247

# Study 3
# Target: ATF2, bZIP domain (human)
# Technique: DHFR protein complementation
# Matrix: yeast
# Setting: single substitutions, most at no-binding floor
# Relative to: wild-type JUN-FOS pair
# Reading: higher = stronger binding
# Parent: JUN, bZIP domain (human); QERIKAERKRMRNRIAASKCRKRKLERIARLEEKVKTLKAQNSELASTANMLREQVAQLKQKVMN; partner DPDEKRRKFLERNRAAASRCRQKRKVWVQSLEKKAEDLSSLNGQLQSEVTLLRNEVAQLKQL
Substitution,binding fitness [natural log]
L45S,-1.53
S43L,-1.28
K39Q,-1.24
S43K,-1.31
A57M,-1.47
R30E,-1.29
L31N,-1.48
K36S,-1.32

# Single results of other studies
Structure (SMILES),target,effect on,technique,tested at,quantity,result
N#CC1(c2ccccn2)CCN(Cc2cc(C(=O)N3CCCC3)c(=O)n3ccccc23)CC1,"Serine/threonine-protein kinase DCLK1 (DCLK1, Homo sapiens, UniProt O15075)",cell-free assay,competition with immobilised ligand,1 µM,remaining binding,91%

# Some of these lines once more (study 2):
Sequence,E-score
ACCAAAGA,-0.219
CCACGTAG,-0.172
